# Published values of several laboratories.
# Every numbered part comes from another study and shows a few of its results, in no order.
# Chain of UniProt Q6ZWH5 (whole entry, looked up): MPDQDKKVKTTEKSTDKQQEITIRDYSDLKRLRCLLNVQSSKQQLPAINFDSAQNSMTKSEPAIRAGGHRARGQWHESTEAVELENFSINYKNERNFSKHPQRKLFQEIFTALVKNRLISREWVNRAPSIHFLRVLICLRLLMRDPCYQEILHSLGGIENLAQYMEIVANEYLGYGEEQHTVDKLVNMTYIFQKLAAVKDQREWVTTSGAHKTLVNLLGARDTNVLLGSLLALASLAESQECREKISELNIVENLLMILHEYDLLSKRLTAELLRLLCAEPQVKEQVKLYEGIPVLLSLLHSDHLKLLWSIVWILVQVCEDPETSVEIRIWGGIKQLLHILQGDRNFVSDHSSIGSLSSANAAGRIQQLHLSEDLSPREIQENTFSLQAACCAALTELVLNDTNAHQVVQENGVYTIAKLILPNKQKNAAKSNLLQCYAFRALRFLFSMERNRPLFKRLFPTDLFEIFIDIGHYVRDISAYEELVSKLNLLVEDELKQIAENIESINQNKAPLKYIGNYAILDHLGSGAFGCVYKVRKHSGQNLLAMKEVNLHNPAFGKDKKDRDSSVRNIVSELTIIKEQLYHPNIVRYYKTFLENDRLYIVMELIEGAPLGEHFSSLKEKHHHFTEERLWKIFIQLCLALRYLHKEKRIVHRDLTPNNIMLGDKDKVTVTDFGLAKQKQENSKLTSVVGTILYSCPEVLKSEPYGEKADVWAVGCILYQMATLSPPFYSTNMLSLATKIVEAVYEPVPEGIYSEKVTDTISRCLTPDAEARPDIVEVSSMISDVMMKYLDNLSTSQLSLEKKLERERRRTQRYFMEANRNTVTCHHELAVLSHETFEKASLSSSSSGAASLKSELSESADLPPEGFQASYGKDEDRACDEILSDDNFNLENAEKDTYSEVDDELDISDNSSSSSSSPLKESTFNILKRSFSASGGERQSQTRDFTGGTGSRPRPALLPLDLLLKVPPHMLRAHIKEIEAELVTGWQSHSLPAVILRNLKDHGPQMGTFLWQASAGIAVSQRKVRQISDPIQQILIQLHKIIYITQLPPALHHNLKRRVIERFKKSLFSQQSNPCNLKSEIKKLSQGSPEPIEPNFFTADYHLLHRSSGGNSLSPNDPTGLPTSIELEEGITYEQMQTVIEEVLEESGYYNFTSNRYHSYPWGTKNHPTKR
# Chain of UniProt Q8TBX8 (whole entry, looked up): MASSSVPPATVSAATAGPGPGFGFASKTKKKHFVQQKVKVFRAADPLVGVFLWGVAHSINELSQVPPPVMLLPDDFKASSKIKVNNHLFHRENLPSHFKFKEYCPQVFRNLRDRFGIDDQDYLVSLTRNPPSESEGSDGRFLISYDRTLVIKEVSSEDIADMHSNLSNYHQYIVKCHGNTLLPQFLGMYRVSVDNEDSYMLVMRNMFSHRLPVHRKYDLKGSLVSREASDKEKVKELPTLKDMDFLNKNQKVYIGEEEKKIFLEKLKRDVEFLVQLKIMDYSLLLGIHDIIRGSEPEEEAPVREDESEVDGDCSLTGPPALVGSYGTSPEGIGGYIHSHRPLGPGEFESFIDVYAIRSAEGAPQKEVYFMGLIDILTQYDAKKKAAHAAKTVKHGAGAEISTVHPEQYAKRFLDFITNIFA
# Chain of UniProt O94804 (whole entry, looked up): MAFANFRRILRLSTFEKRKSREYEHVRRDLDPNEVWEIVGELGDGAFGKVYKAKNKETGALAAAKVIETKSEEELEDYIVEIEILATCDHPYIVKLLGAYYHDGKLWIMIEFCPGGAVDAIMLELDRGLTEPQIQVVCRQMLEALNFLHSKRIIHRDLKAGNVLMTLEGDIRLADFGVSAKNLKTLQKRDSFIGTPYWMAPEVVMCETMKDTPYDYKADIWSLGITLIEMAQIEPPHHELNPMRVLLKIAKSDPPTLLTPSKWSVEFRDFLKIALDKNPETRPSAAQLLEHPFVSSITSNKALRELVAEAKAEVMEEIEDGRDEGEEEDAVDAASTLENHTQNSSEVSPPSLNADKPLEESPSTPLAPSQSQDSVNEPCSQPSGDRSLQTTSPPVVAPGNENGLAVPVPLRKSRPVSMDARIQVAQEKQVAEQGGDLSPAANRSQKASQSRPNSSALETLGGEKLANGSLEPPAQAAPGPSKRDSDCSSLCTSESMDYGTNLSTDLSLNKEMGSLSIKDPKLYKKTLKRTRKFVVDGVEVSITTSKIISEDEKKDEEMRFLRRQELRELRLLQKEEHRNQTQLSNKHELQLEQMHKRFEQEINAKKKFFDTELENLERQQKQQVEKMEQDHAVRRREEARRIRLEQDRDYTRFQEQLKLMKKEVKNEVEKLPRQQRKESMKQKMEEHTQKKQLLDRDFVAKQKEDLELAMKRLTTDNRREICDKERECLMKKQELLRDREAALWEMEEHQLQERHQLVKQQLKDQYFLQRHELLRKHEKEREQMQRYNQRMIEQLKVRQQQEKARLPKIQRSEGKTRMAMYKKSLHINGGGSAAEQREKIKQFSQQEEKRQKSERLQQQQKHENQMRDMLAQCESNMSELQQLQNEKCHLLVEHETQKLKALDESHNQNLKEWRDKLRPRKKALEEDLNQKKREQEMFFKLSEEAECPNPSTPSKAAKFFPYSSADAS
# Chain of UniProt Q56UN5 (whole entry, looked up): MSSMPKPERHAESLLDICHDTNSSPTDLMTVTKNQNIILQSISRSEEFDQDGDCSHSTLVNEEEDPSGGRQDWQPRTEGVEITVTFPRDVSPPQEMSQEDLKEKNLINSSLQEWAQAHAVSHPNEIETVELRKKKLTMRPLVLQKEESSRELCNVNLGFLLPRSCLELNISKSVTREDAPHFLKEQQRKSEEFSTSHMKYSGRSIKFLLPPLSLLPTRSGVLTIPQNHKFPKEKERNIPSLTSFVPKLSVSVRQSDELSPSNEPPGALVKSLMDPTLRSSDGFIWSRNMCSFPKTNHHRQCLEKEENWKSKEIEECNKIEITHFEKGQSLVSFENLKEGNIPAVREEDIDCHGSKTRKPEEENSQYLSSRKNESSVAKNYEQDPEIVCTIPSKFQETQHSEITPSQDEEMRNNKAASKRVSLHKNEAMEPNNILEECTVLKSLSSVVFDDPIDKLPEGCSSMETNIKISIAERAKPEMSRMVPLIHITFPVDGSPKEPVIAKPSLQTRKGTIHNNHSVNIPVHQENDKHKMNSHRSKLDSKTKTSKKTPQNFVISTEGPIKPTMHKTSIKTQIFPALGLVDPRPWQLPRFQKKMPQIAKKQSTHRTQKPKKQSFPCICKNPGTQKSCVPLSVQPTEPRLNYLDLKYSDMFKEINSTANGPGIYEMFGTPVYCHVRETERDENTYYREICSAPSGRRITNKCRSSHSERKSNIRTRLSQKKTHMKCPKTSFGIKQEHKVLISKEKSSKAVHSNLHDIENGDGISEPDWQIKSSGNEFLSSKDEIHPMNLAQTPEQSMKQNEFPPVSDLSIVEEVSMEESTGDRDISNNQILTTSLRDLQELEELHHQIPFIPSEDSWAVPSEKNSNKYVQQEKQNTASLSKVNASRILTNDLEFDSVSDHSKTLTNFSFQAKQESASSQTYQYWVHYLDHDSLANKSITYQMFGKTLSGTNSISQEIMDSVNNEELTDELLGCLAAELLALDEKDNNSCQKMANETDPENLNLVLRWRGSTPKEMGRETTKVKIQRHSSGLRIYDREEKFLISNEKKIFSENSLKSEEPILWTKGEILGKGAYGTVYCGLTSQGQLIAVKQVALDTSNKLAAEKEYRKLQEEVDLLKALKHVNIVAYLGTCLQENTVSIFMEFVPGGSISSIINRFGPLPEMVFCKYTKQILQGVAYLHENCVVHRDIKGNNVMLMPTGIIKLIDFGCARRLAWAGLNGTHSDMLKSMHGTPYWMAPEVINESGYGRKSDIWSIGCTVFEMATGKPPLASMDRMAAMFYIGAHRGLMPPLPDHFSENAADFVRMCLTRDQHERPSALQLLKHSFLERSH
# Chain of UniProt Q13705 (whole entry, looked up): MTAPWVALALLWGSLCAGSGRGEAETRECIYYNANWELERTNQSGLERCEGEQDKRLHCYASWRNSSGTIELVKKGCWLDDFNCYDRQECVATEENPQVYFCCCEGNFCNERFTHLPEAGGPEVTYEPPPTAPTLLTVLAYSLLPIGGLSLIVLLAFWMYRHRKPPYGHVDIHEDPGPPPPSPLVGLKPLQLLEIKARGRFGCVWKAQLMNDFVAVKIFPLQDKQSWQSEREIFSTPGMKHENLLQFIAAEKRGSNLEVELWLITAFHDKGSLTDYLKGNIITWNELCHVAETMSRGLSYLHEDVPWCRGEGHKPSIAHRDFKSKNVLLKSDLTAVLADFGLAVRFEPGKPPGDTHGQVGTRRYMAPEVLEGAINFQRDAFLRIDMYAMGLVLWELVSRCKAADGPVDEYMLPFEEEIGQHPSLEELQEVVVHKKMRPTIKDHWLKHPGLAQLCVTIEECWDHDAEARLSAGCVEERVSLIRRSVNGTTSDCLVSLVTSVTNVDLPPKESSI
# Chain of UniProt P06241 (whole entry, looked up): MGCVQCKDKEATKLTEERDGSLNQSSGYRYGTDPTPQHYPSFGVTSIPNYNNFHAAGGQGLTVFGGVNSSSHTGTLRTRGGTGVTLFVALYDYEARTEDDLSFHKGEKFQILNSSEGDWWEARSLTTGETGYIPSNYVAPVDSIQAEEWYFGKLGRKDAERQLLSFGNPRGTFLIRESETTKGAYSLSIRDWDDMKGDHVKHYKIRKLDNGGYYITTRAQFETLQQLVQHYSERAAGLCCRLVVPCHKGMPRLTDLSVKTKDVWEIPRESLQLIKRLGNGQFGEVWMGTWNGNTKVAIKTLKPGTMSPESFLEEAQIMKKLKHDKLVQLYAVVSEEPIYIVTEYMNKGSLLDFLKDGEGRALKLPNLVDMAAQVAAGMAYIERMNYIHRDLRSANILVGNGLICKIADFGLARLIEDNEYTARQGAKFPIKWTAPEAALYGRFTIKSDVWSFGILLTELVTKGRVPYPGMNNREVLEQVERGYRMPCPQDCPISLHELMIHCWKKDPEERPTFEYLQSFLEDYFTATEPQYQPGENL

# Sample 1
# SMILES: CCCCN(CCCC)C(=O)CN1C[C@@H](c2cc(OC)c3c(c2)OCO3)[C@H](C(=O)O)[C@H]1CC(C)(C)CCC
# Read-out: cell-free assay
# Method: competition with immobilised ligand
# Tested at: 1 µM
target,remaining binding
"ACVR2B (Homo sapiens, UniProt Q13705)",85.1%
"Tyrosine-protein kinase ABL1, non-phosphorylated (ABL1, Homo sapiens, UniProt P00519, H396P)",89.4%
"STK10 (Homo sapiens, UniProt O94804)",82.4%
"Non-receptor tyrosine-protein kinase TYK2, JH2 (TYK2, Homo sapiens, UniProt P29597)",95.8%
"GRK4 (Homo sapiens, UniProt P32298)",95.8%
"NEK10 (Homo sapiens, UniProt Q6ZWH5)",100%
"PIP4K2C (Homo sapiens, UniProt Q8TBX8)",80.7%
"MAP3K19 (Homo sapiens, UniProt Q56UN5)",100%

# Sample 2
# Species: mouse
# Sample: microsomes or S9
# Tested at: 2 µM
# Time: 0.5 h
Structure (SMILES),remaining compound [%]
CN1C(=O)C(c2c(-c3ccc(Br)cc3)[nH]c3[nH]c(=O)[nH]c(=O)c23)c2ccccc21 (stereo not shown),34.7
O=C(CC1NCCNC1=O)OCCc1ccccc1 (stereo not shown),33.3
CCn1[nH]/c(=N\S(=O)(=O)c2ccc(C)cc2)c2cc3cccc(C)c3nc21,1.35
COc1ccc(OC)c(NC(=O)c2cc(S(=O)(=O)N3CCC(C)CC3)c(C)n2C)c1,2.77
Cc1ccc(S(=O)(=O)n2c(N)nc3ccccc32)cc1,0.827
Cc1c(C)n(C2CCCCC2)c2ncn(CCCO)c(=N)c12,44.5

# Sample 3
# Compound: CO[C@@H]1[C@H](N(C)C(=O)c2ccccc2)C[C@H]2O[C@]1(C)n1c3ccccc3c3c4c(c5c6ccccc6n2c5c31)C(=O)NC4
# Mode: inhibitor
# Tested at: 1 µM
target,test,inhibition [%]
"Ribosomal protein S6 kinase alpha-1, kinase domain 1 (RPS6KA1, Homo sapiens, UniProt Q15418)",,86
"FYN (Homo sapiens, UniProt P06241)",enzyme activity,60
"SRPK1 (Homo sapiens, UniProt Q96SB4)",enzyme activity,11
"CRK2 (Plasmodium falciparum, UniProt P61075)",enzyme activity,9

# Sample 4
# Target: Dual specificity tyrosine-phosphorylation-regulated kinase 1A (DYRK1A, Homo sapiens, UniProt Q13627)
# Read-out: enzyme activity
# Mode: inhibitor
# Tested at: 0.5 µM
# Baseline: control
Structure (SMILES),remaining activity [%]
Cc1ccc(NC(=O)c2ccc(CN3CCN(C)CC3)cc2)cc1Nc1nc(-c2cccnc2)cs1,106
COc1cc2ncnc(Nc3ccc(Oc4ccccc4)cc3)c2cc1OC,84.6
O=C1NC(=O)C(c2cn(CCCO)c3ncccc23)=C1c1cnccn1,108
O=C1NC(=O)C(c2cn(CCCn3ccnc3)c3ccccc23)=C1Nc1ccccc1,30.8
CO[C@H]1C[C@@H]2CC[C@@H](C)[C@@](O)(O2)C(=O)C(=O)N2CCCC[C@H]2C(=O)O[C@H]([C@H](C)C[C@@H]2CC[C@@H](O)[C@H](OC)C2)CC(=O)[C@H](C)/C=C(\C)[C@@H](O)[C@@H](OC)C(=O)[C@H](C)C[C@H](C)/C=C/C=C/C=C/1C,94.3
OCC(O)CCON=C1C(c2c(O)[nH]c3ccccc23)=Nc2ccccc21 (stereo not shown),82.8
NCCNc1ncc(C(N)=O)c(Nc2cccc(C(F)(F)F)c2)n1,103
Nc1ccc2ncnc(NCCc3ccc(Oc4ccccc4)cc3)c2c1,101
COc1ccc(OC)c2c(=S)c3ccccc3[nH]c12,103
Cn1sc(=O)n(Cc2ccccc2)c1=O,92.6
CNC(=O)c1cc(Oc2ccc(NC(=O)Nc3ccc(Cl)c(C(F)(F)F)c3)cc2)ccn1,103
CC(C)[C@H](CO)Nc1nc(Nc2cc(N)cc(Cl)c2)c2ncn(C(C)C)c2n1,57.1
Cc1cccc(-c2[nH]c(C(C)(C)C)nc2-c2ccc3c(c2)OCO3)n1,98.4
